Assay results pooled from the literature.
Protocols differ between the studies behind these lines. Several values in a cell are separate wells, animals, samples, runs or records. ± marks the error that the study gave.
ABCG2: Broad substrate specificity ATP-binding cassette transporter ABCG2 (ABCG2, Homo sapiens, UniProt Q9UNQ0)
Chain of UniProt Q9UNQ0 (whole entry, looked up): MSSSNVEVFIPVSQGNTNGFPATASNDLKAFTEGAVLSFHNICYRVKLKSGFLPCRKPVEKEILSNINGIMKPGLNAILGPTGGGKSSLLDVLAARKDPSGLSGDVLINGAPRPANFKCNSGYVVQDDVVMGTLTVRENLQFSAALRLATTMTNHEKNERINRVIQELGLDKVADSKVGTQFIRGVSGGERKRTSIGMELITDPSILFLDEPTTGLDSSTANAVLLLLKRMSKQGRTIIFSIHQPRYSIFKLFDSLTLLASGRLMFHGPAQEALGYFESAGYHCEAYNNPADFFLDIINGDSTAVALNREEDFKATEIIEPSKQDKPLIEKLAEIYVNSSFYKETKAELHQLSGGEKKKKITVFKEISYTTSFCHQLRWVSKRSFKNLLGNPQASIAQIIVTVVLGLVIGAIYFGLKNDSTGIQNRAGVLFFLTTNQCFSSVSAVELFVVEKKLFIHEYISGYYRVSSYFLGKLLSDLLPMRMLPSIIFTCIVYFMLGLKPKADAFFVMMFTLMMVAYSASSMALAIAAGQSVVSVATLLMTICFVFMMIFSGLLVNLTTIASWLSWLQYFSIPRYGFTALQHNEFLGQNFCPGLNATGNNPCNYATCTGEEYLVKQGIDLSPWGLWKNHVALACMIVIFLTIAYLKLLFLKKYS
SLCO1B3: Solute carrier organic anion transporter family member 1B3 (SLCO1B3, Homo sapiens, UniProt Q9NPD5)
Chain of UniProt Q9NPD5 (whole entry, looked up): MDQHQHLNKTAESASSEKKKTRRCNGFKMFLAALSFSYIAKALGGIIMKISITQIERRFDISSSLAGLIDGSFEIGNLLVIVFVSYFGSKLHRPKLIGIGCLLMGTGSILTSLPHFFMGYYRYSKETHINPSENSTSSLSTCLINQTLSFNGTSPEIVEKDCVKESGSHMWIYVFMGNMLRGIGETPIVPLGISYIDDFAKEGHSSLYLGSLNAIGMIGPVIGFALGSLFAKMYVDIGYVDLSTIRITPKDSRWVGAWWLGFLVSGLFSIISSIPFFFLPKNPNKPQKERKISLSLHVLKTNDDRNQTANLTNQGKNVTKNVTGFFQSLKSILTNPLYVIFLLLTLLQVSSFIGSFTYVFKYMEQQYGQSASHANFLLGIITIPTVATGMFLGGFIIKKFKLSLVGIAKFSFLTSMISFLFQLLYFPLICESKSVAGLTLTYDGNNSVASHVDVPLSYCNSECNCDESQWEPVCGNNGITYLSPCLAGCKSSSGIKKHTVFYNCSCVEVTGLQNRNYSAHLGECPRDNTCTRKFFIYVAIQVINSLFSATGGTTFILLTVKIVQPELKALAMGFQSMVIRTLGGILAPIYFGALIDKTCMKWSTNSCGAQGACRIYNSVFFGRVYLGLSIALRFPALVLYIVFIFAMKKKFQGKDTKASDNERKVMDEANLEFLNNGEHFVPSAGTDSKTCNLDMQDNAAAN

SMILES	tested on	test	system	setting	scale	measurement	result
CC[C@H]1OC(=O)[C@H](C)[C@@H](O[C@H]2C[C@@](C)(OC)[C@@H](O)[C@H](C)O2)[C@H](C)[C@@H](O[C@@H]2O[C@H](C)C[C@H](N(C)C)[C@H]2O)[C@](C)(O)C[C@@H](C)CN(C)[C@H](C)[C@@H](O)[C@]1(C)O	ABCG2	transport, inhibitor		50 µM, 5 (unit not given), pH 7, with: CCK-8		inhibition	13.7%
CO[C@H]1C[C@@H]2CC[C@@H](C)[C@@](O)(O2)C(=O)C(=O)N2CCCC[C@H]2C(=O)O[C@H]([C@H](C)C[C@@H]2CC[C@@H](OC(=O)NCCOCCOCCOCCOCCOCCOCCOCCOCCC(=O)N3CCc4cc(Cn5nc(-c6ccc7oc(N)nc7c6)c6c(N)ncnc65)ccc4C3)[C@H](OC)C2)C[C@@H](O)[C@H](C)/C=C(\C)[C@@H](O)[C@@H](OC)C(=O)[C@H](C)C[C@H](C)/C=C/C=C/C=C/1C			patients with advanced solid tumours	intravenous, 1.6 mg/3 mg weekly, grade ≥3		Mucositis AE leading to dose reduction	0%
Cc1ccc2nc(Cl)c3cc(C(=O)NCCCN4CCC(C)CC4)sc3c2c1	Vero-E6	CellTiter-Glo ATP		concentration not given, 72 h, second round 5-point	relative to: DMSO 0%, hyamine -100%, more negative, more toxic	cytotoxicity efficacy	-14.9%
Cc1oncc1C(=O)Nc1ccc(C(F)(F)F)cc1	ABCG2	transport, inhibitor		100 µM, 5 (unit not given), pH 7, with: CCK-8		inhibition	33.5%
CCN(CC)Cc1cc(Nc2ccnc3cc(Cl)ccc23)ccc1O	Vero-E6	CellTiter-Glo ATP		concentration not given, 72 h, second round 5-point	relative to: DMSO 0%, hyamine -100%, more negative, more toxic	cytotoxicity efficacy	-10.8%
O=C1c2c(O)c(=O)ccn2N([C@@H]2c3ccccc3SCc3c2ccc(F)c3F)[C@@H]2COCCN12			BALB/c mouse	subcutaneous, 0.5 mg/kg q12h		trough concentration	2.56 ng/mL
COc1ccc(-c2nc(CN3CCC(C(=O)NCCCN4CCN(c5ccccc5F)CC4)CC3)c(C)o2)cc1OC	Vero-E6	CellTiter-Glo ATP		72 h, second round 5-point	relative to: DMSO 0%, hyamine -100%, more negative, more toxic	maximum response	-22.8%
CC(C)C[C@H](NC(=O)[C@H](C)NC(=O)[C@@H](NC(=O)[C@H](CCCNC(=N)N)NC(=O)[C@H](CC(C)C)NC(=O)[C@H](Cc1c[nH]c2ccccc12)NC(=O)[C@@H]1CCCN1C(=O)[C@@H](N)CCCCN)C(C)C)C(=O)N[C@@H](CS)C(=O)N1CCC[C@H]1C(=O)NCC(=O)O	HEp-2	WST-1		128 µM, 24 h		viability	108% and 98.2% and 102%
CC(C)C[C@@H](N)C(=O)N[C@H](Cc1ccccc1)C(=O)N[C@H](Cc1ccccc1)C(=O)N[C@H](C)C(N)=O	NGF-differentiated PC-12 neurons			10 µM, 24 h	relative to: untreated	viability	98%
Cc1cc(C(=O)NC(C)(C)COc2cccc3c2C(N)=NS(=O)(=O)N3)cc(C)n1	Salmonella typhimurium	Ames test	TA100	1500 µg/plate, without S9	relative to: treated over solvent	revertant ratio	1
CN1CC[C@@H](c2c(O)cc(O)c3c(=O)cc(-c4ccc(C(F)(F)F)cc4Cl)oc23)[C@@H]1CO		item: Fatigue	B-cell malignancies or AML	oral, 100 mg, continuous dosing		patients with adverse event	25%
CNC(=O)c1c(C)oc2cc(Oc3ccnc4cc(OCCN5CCOCC5)ccc34)ccc12			patients	dose not given	relative to: once daily versus twice daily	systolic blood pressure	no effect
Cc1noc2c(NC3CCOCC3)cc(-c3cccc(C(F)(F)F)c3)nc12	Vero-E6	CellTiter-Glo ATP		72 h, retest 8-point duplicates	relative to: DMSO 0%, hyamine -100%, more negative, more toxic	maximum response	-44%
O=c1ccc2ccccc2o1	NHEK	caspase-3/7 activity		concentration not given, 1 h		chance response	3.4%
CC[C@H](C)[C@H](NC(=O)[C@H](Cc1ccccc1)NC(=O)[C@H](CCC(=O)O)NC(=O)[C@H](CCCNC(=N)N)NC(=O)[C@H](C)NC(=O)[C@H](C)NC(=O)[C@H](CCC(N)=O)NC(=O)[C@H](CCC(=O)O)NC(=O)[C@H](CCC(=O)O)NC(=O)[C@H](CC(C)C)NC(=O)[C@H](Cc1ccc(O)cc1)NC(=O)[C@H](CO)NC(=O)[C@H](CO)NC(=O)[C@@H](NC(=O)[C@H](CC(=O)O)NC(=O)[C@H](CO)NC(=O)[C@@H](NC(=O)[C@H](Cc1ccccc1)NC(=O)[C@@H](NC(=O)CNC(=O)[C@H](CCC(=O)O)NC(=O)[C@H](C)NC(=O)CCc1c[nH]cn1)[C@@H](C)O)[C@@H](C)O)C(C)C)C(=O)N[C@@H](C)C(=O)N[C@@H](Cc1c[nH]c2ccccc12)C(=O)N[C@@H](CC(C)C)C(=O)N[C@H](C(=O)N[C@@H](CCCNC(=N)N)C(=O)NCC(=O)N[C@@H](CCCNC(=N)N)C(=O)N[C@@H](CCCCNC(=O)COCCOCCNC(=O)COCCOCCNC(=O)CC[C@H](NC(=O)CCCCCCCCCCCCCCCCC(=O)O)C(=O)O)C(=O)NCC(=O)NCC(=O)N[C@@H](CO)C(=O)N[C@@H](CCCCNc1c(NCCCCCN(O)C(=O)CCC(=O)NCCCCCN(O)C(=O)CCC(=O)NCCCCCN(O)C(C)=O)c(=O)c1=O)C(=O)O)C(C)C		UPLC-MS	rat, plasma	subcutaneous, 20 nmol/kg		terminal elimination rate constant	0.0844 h⁻¹
Fc1ccc(C2=CCNCC2)cc1	Salmonella typhimurium	SOS response, SOS/umu test	TA1535/pSK1002, TGA medium	0.25 mg/mL, 4 h, with: 10% rat liver S9	relative to: untreated	induction factor	1
CC(=O)N1CCC(C(=O)N2CCN3C(=O)c4cc(-c5ccccc5)ccc4NC(=O)C3C2)CC1 (stereo not shown)	Salmonella typhimurium		TA1535	1.58 µg/plate, with: rat liver S9		revertants per plate	15.5
CCCC(C(=O)c1ccc(O)c(OC)c1)N1CCCC1 (stereo not shown)			rat	subcutaneous, 4 mg/kg MDPV, 40 min		brain-to-plasma ratio	0.4 ± 0.1
NC(=O)c1ncn([C@@H]2O[C@H](CO)[C@@H](O)[C@H]2O)n1	SLCO1B3	transport, inhibitor	transiently transfected cells	100 µM, 10 (unit not given), with: CCK-8		inhibition	53.2%
CCN1CCN(Cc2ccc(-c3cc4c(N[C@H](C)c5ccccc5)ncnc4[nH]3)cc2)CC1	human coronavirus OC43	virus-induced cell killing	MRC-5	screen		maximum inhibition	11.1%

SMILES	tested on	test	system	setting	scale	measurement	result
COc1cc2c(Oc3ccc4[nH]c(C)cc4c3F)ccnc2cc1OCC1(N)CC1			paediatric recurrent refractory sarcoma	8 mg		Thrombocytopenia incidence	0%
CCCC(C(=O)c1ccc2c(c1)OCO2)N1CCCC1.Cl (racemic)			rat, brain over plasma	sc, 4 mg/kg, 240 min		Kp	9.4 ± 1.3
O=[N+]([O-])c1ccc(N2CCC(NCCC(O)c3ccc(F)c4ccccc34)CC2)c(C(F)(F)F)c1 (stereo not shown)	Salmonella typhimurium	SOS/umu test	TA1535/pSK1002	0.004 mg/mL, 4 h, without S9, full range		survival	37%
[Cl-].[Cl-].[Pt+2].[Ru+2].c1ccc(-c2nc3ccccc3nc2-c2ccccn2)nc1.c1cnc2c(c1)ccc1cccnc12.c1cnc2c(c1)ccc1cccnc12	Danio rerio		embryos	15 µM, 48 h		survival rate	90 ± 2.7%
C[C@H]1CN(N=O)CCc2ccc(Cl)cc21	TK6			5 µM, 4 h, with: hamster liver S9	relative to: vehicle	relative survival	104%
COc1cccc(-c2n[nH]c(SCc3ccccn3)n2)c1OC	Salmonella typhimurium	Ames test, preincubation	TA98	0.031 mg/plate, with rat liver S9		revertant colonies per plate	30
CC(=O)c1c(C)c2cnc(Nc3ccc(C4CCN(CCS(C)(=O)=O)CC4)cn3)nc2n(C2CCCC2)c1=O			human, plasma	oral, 100 mg twice daily, day 21, multiple doses		t1/2	8.08 h
COc1cc(/C=C/C(=O)N2CCC=CC2=O)cc(OC)c1OC	human coronavirus OC43	virus-induced cell killing	MRC-5	screen		maximum inhibition	5.47%
CCCN1CCN(CCCNC(=O)c2cc3c(Cl)nc4ccccc4c3s2)CC1	Vero-E6	CellTiter-Glo ATP		72 h, retest 8-point duplicates	relative to: DMSO 0%, hyamine -100%, more negative, more toxic	maximum response	-21.2%
O=C(c1ccc(F)c(F)c1Nc1ccc(I)cc1F)N1CC(O)([C@@H]2CCCCN2)C1			human patients	oral, dose not given, dose escalation, suspension		adverse events	100%
CCS(=O)(=O)N1CC(CC#N)(n2cc(-c3ncnc4[nH]ccc34)cn2)C1	ABCG2	transport, inhibitor		50 µM, 5 (unit not given), pH 7, with: CCK-8		inhibition	31.8%
CN/C(=N\[N+](=O)[O-])NCc1cnc(Cl)s1			soil	0 days, nominal 3.3		recovery	70%
COC(=O)C(C(C)C)N(Cc1ccc(-c2ccccc2-c2nn[nH]n2)cc1)N=O (stereo not shown)	TK6					micronucleus induction	negative
CCOC(=O)C1=C(CN2CCC[C@H]2C(=O)Nc2cccc(B(O)O)c2)NC(c2nccs2)=N[C@H]1c1ccc(F)cc1Br	hepatitis B virus		HepDES19		relative to: CC50 over EC50	selectivity index	17
Cc1ccc(-c2cccc(CN3CCCC(c4nc5ccc(C)cc5c(=O)[nH]4)C3)c2)c(C)c1 (stereo not shown)	Vero-E6	CellTiter-Glo ATP		72 h, retest 8-point duplicates	relative to: DMSO 0%, hyamine -100%, more negative, more toxic	maximum response	-4.12%
CCCC(C(=O)c1ccc(O)c(O)c1)N1CCCC1 (stereo not shown)			rat	subcutaneous, 2 mg/kg MDPV, 40 min		brain-to-plasma ratio	0.1
COc1ccc(Nc2cc(C(=O)NCCCN(C)Cc3ccccc3)c3ccccc3n2)cc1	Vero-E6	CellTiter-Glo ATP		72 h, second round 5-point	relative to: DMSO 0%, hyamine -100%, more negative, more toxic	maximum response	-14.1%
CCC(CC)COC(=O)[C@H](C)N[P@](=O)(OC[C@H]1O[C@@](C#N)(c2ccc3c(N)ncnn23)[C@H](O)[C@@H]1O)Oc1ccccc1	SLCO1B3	transport, inhibitor	transiently transfected cells	100 µM, 10 (unit not given), with: CCK-8		inhibition	107%
CNCCN(C)c1nc(NC(C)c2ccccc2)c2ccccc2n1 (stereo not shown)	Vero-E6	CellTiter-Glo ATP		concentration not given, 72 h, retest 8-point duplicates	relative to: DMSO 0%, hyamine -100%, more negative, more toxic	cytotoxicity efficacy	0%
CCN(CC)C(=O)[C@@H]1C=C2c3cccc4[nH]cc(c34)C[C@H]2N(C)C1		item: lack of energy	healthy volunteers	dose not given, 0 to 12 h	relative to: placebo, direction not given	List of Complaints score	8
